Assay results pooled from the literature.
Every numbered part comes from another study and shows a few of its results, in no order. Changes are numbered by the printed parent chain.

Sample 1
Target: CEP164, C-terminal peptide (human)
Technique: DHFR complementation, deep sequencing
Sample: yeast
Notes: single substitutions, model-inferred values
Relative to: wild type
Direction: higher = weaker binding
Starting sequence: PDZK1, PDZ domain 2 (human); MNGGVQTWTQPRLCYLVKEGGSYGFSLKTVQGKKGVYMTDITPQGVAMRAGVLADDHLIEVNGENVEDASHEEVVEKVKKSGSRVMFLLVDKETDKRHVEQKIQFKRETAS; partner HNRVKVYRF
For `V5R`, “binding free energy change” read -0.0396 kcal/mol.
For `E73W`, “binding free energy change” read -0.0193 kcal/mol.
`T9G`: “binding free energy change” -0.0919 kcal/mol.
For `K18F`, “binding free energy change” read 1.27 kcal/mol.
`D40C` — result for “binding free energy change”: 0.693 kcal/mol.
For `N2P`, “binding free energy change” read -0.163 kcal/mol.
Under “binding free energy change”, `E108D` is recorded as -0.0883 kcal/mol.
For `A69F`, “binding free energy change” read -0.343 kcal/mol.

Sample 2
Target: CCNA1, cyclin fold, Cln2 fusion (human)
Technique: yeast growth competition, sequencing
Sample: yeast
Notes: strong parent motif
Relative to: not given
Direction: higher = stronger binding
Starting sequence: viral docking peptide; TSVRRALFTGGSD; partner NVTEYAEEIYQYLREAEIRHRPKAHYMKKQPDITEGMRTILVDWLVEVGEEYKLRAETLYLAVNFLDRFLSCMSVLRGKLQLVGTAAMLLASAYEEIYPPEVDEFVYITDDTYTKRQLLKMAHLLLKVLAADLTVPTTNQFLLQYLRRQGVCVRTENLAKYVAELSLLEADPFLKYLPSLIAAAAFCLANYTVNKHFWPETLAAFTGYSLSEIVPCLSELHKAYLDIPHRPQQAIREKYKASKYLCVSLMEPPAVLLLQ
`TSVERALFTGGSD [R4E]`: “normalised enrichment score” 0.0417.
Under “normalised enrichment score”, `TSVRRALFTEGSD [G10E]` is recorded as 2.14.
`TSYRRALFTGGSD [V3Y]`: “normalised enrichment score” 0.338.
`TSVRRALFTGSSD [G11S]` — result for “normalised enrichment score”: 1.
For `TSVRRAEFTGGSD [L7E]`, “normalised enrichment score” read -0.00858.
`TSVRRALFTGGDD [S12D]` — result for “normalised enrichment score”: 1.68.
For `TSVRRALFTIGSD [G10I]`, “normalised enrichment score” read 0.872.
`TSVRRAGFTGGSD [L7G]` — result for “normalised enrichment score”: -0.0856.
`TSVRRALFSGGSD [T9S]`: “normalised enrichment score” 0.836.
Under “normalised enrichment score”, `TSVRRALFTGWSD [G11W]` is recorded as 0.571.
`TSVRRANFTGGSD [L7N]` — result for “normalised enrichment score”: 0.401.
`TSVRRALFTMGSD [G10M]`: “normalised enrichment score” 0.668.
For `TSVNRALFTGGSD [R4N]`, “normalised enrichment score” read 0.29.
Under “normalised enrichment score”, `TSVRRALFTGQSD [G11Q]` is recorded as 1.23.
`TSVRMALFTGGSD [R5M]`: “normalised enrichment score” 0.252.
`TSVRRALFTGHSD [G11H]`: “normalised enrichment score” 1.18.
For `TSVRAALFTGGSD [R5A]`, “normalised enrichment score” read 0.279.
For `TSVRKALLTGGSD [R5K F8L]`, “normalised enrichment score” read 0.033.
Under “normalised enrichment score”, `TSVRWALFTGGSD [R5W]` is recorded as -0.175.
`TSVRRALFTGVSD [G11V]` — result for “normalised enrichment score”: 1.3.

Sample 3
Target: Histone acetyltransferase KAT6A, both winged helices, GST fusion (KAT6A, Homo sapiens, UniProt Q92794, residues 1-181)
Technique: protein binding microarray
Form: double-stranded DNA, one strand shown
Sample: in vitro
Tested at: not given
Notes: 8-mer, flanks averaged, mean of 2 arrays, mostly near background
Relative to: not given
Direction: higher = stronger binding
Residues (chain): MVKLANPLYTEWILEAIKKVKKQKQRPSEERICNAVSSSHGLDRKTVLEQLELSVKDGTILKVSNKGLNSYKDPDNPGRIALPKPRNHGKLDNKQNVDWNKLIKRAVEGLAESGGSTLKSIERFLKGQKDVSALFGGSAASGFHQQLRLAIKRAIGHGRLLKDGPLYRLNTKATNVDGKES
For `CTAACAAC`, the E-score was -0.0378.
The E-score of `ACATATGC` is reported as -0.0668.
`ATGATCGA` has an E-score of -0.0851.
With `CGCGACGA` the E-score was 0.189.
`ATTCGCCA` gave an E-score of -0.0609.
The E-score of `CCCAATCC` is reported as -0.258.
With `TCTCCAGA` the E-score was -0.117.
`GGGCAGGA` gave an E-score of -0.142.

Sample 4
Target: Fragile X messenger ribonucleoprotein 1, C-terminal low-complexity region (Fmr1, Mus musculus, UniProt P35922)
Technique: RNA Bind-n-Seq
Form: RNA
Sample: in vitro
Tested at: 200 nM
Notes: whole 134-nt RNA, ends assumed
Added: 150 mM KCl
Relative to: input library
Direction: higher = stronger binding
`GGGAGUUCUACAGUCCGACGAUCGCCAUGCAGGUGGGCAUCUUUGGGAAGUGGGGCAAGGGGGGGAUAGGGAGGGGGGUAACACUUUGGGAACAGGUGGUCCCAGGUCGUUUCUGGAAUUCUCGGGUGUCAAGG` gave a log2 enrichment of 0.878.
`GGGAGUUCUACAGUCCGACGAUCUUAGUGAAUGUAUAGAAGGAGUAAAGGUAGAGCACAAUCCUGACCUGUCAGUUACUGUCAGCACCAAAAAAUCCCACCAGACAUGGACCUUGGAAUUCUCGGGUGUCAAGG` has a log2 enrichment of -0.0685.
`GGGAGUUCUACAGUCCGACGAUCCCUGUGCUACACAUCGUAUGUACCGAAUCGGGGCCCCCCGGGGCCCCCCGGGGCCCCCCGGAAAGUAUUAUGUUACGCCGUUCGGAUCUGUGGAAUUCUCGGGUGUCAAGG` has a log2 enrichment of -1.17.
`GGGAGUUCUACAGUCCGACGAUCUCCUGUGCUACACAUCGUAUGUACCGAAUCAAAUUUUUUUAAACCCAAAUUUUUUUAAAAAAGUAUUAUGUUACGCCGUUCGGAUCUGCAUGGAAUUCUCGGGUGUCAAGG` has a log2 enrichment of 0.434.
`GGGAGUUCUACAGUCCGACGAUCUCAAGUCCUGUGCUACACAUCGUAUGUACCGAAUCGGGAGGGAAAAAGGGAGGGAAAGUAUUAUGUUACGCCGUUCGGAUCUGCACUUCCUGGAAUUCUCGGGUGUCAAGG` has a log2 enrichment of 1.14.
`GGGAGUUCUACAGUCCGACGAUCUCGGAUGGCUUCGCAUUUCCCCAAUACCCCAUUAAACCGUAUCAUCUGAAGAGGAUCCACAGAGCUGUCUUACAUGGUAAUCUAGAGAAAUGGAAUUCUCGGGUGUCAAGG` gave a log2 enrichment of -0.629.
For `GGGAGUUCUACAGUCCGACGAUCCAAGUCCUGUGCUACACAUCGUAUGUACCGAAUCGGGGUUUGGUUUGGGGUUUGGAAAGUAUUAUGUUACGCCGUUCGGAUCUGCACUUCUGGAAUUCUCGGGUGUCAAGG`, the log2 enrichment was -0.0964.
For `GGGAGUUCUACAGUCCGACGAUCGUCCUGUGCUACACAUCGUAUGUACCGAAUCGGGGUUUUUGGGGAAAGGGGAAAGGGGAAAGUAUUAUGUUACGCCGUUCGGAUCUGCACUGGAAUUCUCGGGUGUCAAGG`, the log2 enrichment was 0.333.
